Assay results pooled from the literature.
A part holds a random share of what one study measured.
Sequence of UniProt Q9Y3S1 (whole entry, looked up): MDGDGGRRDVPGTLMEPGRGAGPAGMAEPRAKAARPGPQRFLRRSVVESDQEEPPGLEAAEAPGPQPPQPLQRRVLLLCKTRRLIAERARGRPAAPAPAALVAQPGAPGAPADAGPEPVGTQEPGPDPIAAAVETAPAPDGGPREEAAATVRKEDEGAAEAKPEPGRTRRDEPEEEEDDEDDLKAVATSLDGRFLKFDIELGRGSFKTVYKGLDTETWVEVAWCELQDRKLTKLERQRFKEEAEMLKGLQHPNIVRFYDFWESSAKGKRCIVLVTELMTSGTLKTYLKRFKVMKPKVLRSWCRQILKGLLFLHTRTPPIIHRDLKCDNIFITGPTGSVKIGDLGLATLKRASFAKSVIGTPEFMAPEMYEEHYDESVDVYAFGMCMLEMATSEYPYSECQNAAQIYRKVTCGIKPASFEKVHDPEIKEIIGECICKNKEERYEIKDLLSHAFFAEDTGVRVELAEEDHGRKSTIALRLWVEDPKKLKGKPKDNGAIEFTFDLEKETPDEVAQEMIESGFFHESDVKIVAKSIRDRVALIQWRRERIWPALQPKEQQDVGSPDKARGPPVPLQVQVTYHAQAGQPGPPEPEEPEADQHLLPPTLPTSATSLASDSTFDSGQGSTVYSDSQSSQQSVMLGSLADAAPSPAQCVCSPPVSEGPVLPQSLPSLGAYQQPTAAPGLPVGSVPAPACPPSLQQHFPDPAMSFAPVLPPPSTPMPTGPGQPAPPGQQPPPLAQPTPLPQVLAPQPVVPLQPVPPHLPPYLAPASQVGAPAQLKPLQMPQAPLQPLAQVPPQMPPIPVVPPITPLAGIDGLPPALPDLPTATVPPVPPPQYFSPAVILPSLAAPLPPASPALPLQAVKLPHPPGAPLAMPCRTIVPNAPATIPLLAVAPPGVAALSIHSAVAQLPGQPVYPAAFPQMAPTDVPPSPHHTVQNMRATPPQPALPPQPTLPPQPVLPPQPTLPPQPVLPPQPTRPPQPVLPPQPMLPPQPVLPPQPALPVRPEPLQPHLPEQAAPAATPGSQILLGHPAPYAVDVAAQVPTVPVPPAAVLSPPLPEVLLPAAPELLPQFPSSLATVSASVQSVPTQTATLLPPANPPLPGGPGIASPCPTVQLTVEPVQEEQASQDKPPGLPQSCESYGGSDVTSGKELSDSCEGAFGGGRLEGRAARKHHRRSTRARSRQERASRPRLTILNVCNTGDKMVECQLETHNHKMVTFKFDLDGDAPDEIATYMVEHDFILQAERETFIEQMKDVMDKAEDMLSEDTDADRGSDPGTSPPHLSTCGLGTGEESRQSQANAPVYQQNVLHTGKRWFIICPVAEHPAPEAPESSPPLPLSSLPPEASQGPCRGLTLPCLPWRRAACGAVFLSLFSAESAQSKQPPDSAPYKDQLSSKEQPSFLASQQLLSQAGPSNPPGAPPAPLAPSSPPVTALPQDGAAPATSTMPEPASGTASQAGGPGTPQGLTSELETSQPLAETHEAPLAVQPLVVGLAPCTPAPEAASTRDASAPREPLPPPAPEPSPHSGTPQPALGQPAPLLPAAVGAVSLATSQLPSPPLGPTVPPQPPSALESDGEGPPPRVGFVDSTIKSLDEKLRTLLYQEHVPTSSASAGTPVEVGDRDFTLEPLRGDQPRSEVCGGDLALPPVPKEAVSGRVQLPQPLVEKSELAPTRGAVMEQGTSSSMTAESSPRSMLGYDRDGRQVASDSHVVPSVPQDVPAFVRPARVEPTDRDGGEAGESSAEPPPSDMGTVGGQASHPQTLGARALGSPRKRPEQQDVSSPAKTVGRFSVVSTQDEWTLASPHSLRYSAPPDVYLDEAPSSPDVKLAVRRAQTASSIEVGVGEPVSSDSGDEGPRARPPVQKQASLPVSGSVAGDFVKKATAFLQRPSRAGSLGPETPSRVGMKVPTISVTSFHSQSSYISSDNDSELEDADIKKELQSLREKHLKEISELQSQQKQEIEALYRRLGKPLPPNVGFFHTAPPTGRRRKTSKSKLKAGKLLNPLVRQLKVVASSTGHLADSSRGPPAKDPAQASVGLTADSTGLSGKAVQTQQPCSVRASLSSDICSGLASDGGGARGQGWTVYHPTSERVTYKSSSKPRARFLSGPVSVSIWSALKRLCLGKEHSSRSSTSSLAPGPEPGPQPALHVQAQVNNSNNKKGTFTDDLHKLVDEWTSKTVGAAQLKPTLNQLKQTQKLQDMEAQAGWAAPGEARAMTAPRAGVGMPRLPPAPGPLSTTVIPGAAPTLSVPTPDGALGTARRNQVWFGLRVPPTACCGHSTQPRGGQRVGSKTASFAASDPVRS
Sequence of UniProt P53778 (whole entry, looked up): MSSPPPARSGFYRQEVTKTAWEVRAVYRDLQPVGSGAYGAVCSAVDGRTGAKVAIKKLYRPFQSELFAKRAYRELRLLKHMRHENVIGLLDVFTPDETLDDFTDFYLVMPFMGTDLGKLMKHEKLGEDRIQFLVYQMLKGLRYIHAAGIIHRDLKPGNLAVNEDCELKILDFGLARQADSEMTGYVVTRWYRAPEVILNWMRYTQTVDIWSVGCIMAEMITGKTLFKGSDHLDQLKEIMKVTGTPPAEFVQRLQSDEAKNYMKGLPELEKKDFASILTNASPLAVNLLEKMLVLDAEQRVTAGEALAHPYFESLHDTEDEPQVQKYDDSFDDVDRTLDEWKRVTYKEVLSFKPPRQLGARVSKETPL
Sequence of UniProt Q13976 (whole entry, looked up): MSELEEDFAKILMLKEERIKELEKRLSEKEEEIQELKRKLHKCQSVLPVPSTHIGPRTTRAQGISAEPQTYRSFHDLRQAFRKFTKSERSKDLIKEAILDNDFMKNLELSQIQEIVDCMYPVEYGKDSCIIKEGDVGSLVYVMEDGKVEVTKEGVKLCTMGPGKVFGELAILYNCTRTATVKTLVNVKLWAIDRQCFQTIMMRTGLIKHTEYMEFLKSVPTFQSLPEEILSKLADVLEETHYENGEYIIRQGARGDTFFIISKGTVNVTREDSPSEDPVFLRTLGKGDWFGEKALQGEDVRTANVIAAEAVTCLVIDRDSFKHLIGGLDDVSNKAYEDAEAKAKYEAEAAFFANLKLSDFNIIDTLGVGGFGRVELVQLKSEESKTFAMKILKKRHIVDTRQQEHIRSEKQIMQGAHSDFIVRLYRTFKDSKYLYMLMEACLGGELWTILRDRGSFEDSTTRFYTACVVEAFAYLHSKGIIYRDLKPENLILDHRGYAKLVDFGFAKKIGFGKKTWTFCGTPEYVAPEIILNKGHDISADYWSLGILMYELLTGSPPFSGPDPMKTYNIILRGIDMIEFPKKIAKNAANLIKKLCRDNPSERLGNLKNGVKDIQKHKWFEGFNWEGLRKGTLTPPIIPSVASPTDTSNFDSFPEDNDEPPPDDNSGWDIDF
Sequence of UniProt Q9NQU5 (whole entry, looked up): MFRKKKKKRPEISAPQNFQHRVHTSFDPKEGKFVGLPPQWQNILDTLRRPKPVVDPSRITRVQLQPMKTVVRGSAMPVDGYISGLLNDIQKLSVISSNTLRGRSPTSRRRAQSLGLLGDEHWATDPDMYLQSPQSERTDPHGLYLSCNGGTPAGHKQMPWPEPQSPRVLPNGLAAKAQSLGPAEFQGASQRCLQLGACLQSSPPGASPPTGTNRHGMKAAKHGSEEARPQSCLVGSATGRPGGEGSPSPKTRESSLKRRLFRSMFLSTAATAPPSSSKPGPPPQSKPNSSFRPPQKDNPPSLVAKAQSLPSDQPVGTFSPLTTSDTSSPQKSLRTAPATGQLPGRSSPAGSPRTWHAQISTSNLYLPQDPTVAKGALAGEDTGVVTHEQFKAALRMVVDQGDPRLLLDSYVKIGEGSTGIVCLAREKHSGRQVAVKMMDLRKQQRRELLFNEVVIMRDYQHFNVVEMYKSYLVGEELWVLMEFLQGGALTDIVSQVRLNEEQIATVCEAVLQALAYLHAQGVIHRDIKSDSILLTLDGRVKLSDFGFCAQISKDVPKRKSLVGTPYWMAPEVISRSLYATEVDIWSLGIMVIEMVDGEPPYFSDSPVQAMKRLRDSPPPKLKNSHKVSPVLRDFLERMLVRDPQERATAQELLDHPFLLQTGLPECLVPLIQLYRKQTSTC
Sequence of UniProt Q04771 (whole entry, looked up): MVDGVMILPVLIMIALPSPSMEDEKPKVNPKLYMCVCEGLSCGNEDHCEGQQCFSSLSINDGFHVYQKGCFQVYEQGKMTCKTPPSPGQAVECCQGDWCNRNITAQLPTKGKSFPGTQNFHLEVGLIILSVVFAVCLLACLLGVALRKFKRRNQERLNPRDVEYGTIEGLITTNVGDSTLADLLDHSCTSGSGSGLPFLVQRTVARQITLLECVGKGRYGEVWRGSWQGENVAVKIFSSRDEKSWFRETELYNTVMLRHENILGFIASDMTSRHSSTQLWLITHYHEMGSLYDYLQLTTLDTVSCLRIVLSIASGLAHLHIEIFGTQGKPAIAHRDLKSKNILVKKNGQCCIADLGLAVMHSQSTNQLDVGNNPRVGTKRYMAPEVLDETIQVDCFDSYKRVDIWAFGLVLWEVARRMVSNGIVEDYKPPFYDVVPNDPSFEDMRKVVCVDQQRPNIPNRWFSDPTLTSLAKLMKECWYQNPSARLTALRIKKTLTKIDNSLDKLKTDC
Sequence of UniProt P23443 (whole entry, looked up): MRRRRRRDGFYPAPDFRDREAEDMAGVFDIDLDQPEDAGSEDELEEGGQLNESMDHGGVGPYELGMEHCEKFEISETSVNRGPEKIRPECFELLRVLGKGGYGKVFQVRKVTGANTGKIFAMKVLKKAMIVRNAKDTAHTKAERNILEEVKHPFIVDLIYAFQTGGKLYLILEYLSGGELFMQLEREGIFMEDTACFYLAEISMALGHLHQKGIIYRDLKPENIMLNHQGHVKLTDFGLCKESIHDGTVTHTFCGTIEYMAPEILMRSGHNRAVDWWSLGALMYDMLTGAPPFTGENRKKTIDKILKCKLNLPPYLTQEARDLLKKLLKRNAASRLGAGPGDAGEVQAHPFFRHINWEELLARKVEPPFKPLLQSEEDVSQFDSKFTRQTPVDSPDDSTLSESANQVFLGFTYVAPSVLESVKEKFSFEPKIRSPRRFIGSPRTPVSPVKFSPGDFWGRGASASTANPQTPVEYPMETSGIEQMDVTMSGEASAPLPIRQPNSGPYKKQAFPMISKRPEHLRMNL

Study 1
SMILES: CN(C)CC#Cc1ccc(OCCCc2sc(N3CCc4cccc(C(=O)Nc5nc6ccccc6s5)c4C3)nc2C(=O)O)c(F)c1
Effect on: cell-free assay
Technique: competition with immobilised ligand
Concentration: 1 µM
Tyrosine-protein kinase JAK2, JH1 (JAK2, Homo sapiens, UniProt O60674) — remaining binding: 100%.
Serine/threonine-protein kinase 25 (STK25, Homo sapiens, UniProt O00506) — remaining binding: 100%.
For 5'-AMP-activated protein kinase catalytic subunit alpha-2 (PRKAA2, Homo sapiens, UniProt P54646): remaining binding read 99%.
For Testis-specific serine/threonine-protein kinase 3 (TSSK3, Homo sapiens, UniProt Q96PN8): remaining binding read 84%.
For Serine/threonine-protein kinase Nek9 (NEK9, Homo sapiens, UniProt Q8TD19): remaining binding read 95%.
For Serine/threonine-protein kinase 33 (STK33, Homo sapiens, UniProt Q9BYT3): remaining binding read 100%.
Phosphorylase b kinase gamma catalytic chain, skeletal muscle/heart isoform (PHKG1, Homo sapiens, UniProt Q16816) — remaining binding: 98%.
It gave 100% for remaining binding (Activin receptor type-1 (ACVR1, Homo sapiens, UniProt Q04771)).
It gave 56% for remaining binding (Hormonally up-regulated neu tumor-associated kinase (HUNK, Homo sapiens, UniProt P57058)).
Tyrosine-protein kinase ABL1, non-phosphorylated (ABL1, Homo sapiens, UniProt P00519, Q252H) — remaining binding: 88%.
For Mitogen-activated protein kinase 12 (MAPK12, Homo sapiens, UniProt P53778): remaining binding read 89%.
The remaining binding was 96% (Serine/threonine-protein kinase PAK 4 (PAK4, Homo sapiens, UniProt O96013)).
Peripheral plasma membrane protein CASK (CASK, Homo sapiens, UniProt O14936) — remaining binding: 100%.
The remaining binding was 100% (Mitogen-activated protein kinase 14 (MAPK14, Homo sapiens, UniProt Q16539)).
It gave 100% for remaining binding (Phosphorylase b kinase gamma catalytic chain, liver/testis isoform (PHKG2, Homo sapiens, UniProt P15735)).
For Dual specificity mitogen-activated protein kinase kinase 3 (MAP2K3, Homo sapiens, UniProt P46734): remaining binding read 100%.
It gave 96% for remaining binding (Serine/threonine-protein kinase WNK2 (WNK2, Homo sapiens, UniProt Q9Y3S1)).
Serine/threonine-protein kinase RIO2 (RIOK2, Homo sapiens, UniProt Q9BVS4) — remaining binding: 100%.
Serine/threonine-protein kinase PAK 6 (PAK6, Homo sapiens, UniProt Q9NQU5) — remaining binding: 100%.
Cyclin-dependent kinase 16 (CDK16, Homo sapiens, UniProt Q00536) — remaining binding: 100%.
The remaining binding was 69% (Cyclin-dependent kinase 8 (CDK8, Homo sapiens, UniProt P49336)).
Ribosomal protein S6 kinase beta-1 (RPS6KB1, Homo sapiens, UniProt P23443) — remaining binding: 100%.
Ribosomal protein S6 kinase alpha-5, N-terminal kinase domain (RPS6KA5, Homo sapiens, UniProt O75582) — remaining binding: 90%.

Study 2
Compound: O=C(Nc1ccccc1)Nc1cccc(Oc2ccc3nccn3n2)c1
Technique: competitive binding panel
Concentration: 1 µM
Reference: vehicle
Receptor tyrosine-protein kinase erbB-2 (ERBB2, Homo sapiens, UniProt P04626) — remaining binding: 62%.
It gave 100% for remaining binding (Serine/threonine-protein kinase 26 (STK26, Homo sapiens, UniProt Q9P289); item: MST4).
It gave 97% for remaining binding (SRSF protein kinase 2 (SRPK2, Homo sapiens, UniProt P78362)).
The remaining binding was 70% (Ephrin type-A receptor 2 (EPHA2, Homo sapiens, UniProt P29317)).
The remaining binding was 100% (Mitogen-activated protein kinase kinase kinase 5 (MAP3K5, Homo sapiens, UniProt Q99683); item: ASK1).
It gave 100% for remaining binding (STE20/SPS1-related proline-alanine-rich protein kinase (STK39, Homo sapiens, UniProt Q9UEW8)).
AP2-associated protein kinase 1 (AAK1, Homo sapiens, UniProt Q2M2I8) — remaining binding: 100%.

Study 3
Compound: CCN(CC)CCCCN1c2ccccc2Oc2ccc(Cl)cc21
Effect on: enzyme activity
Action: inhibitor
Concentration: 0.5 µM
Reference: control
For Protein kinase C delta type (PRKCD, Homo sapiens, UniProt Q05655): remaining activity read 95.4%.
Ephrin type-A receptor 5 (EPHA5, Homo sapiens, UniProt P54756) — remaining activity: 109%.
RAC-gamma serine/threonine-protein kinase (AKT3, Homo sapiens, UniProt Q9Y243) — remaining activity: 103%.
For Leucine-rich repeat serine/threonine-protein kinase 2 (LRRK2, Homo sapiens, UniProt Q5S007): remaining activity read 114%.
For cGMP-dependent protein kinase 1 (PRKG1, Homo sapiens, UniProt Q13976): remaining activity read 98.8%.
It gave 105% for remaining activity (Protein kinase C iota type (PRKCI, Homo sapiens, UniProt P41743)).
For Mitogen-activated protein kinase 13 (MAPK13, Homo sapiens, UniProt O15264): remaining activity read 94.3%.
The remaining activity was 105% (Tyrosine-protein kinase Lyn (LYN, Homo sapiens, UniProt P07948)).
The remaining activity was 111% (MAP kinase-interacting serine/threonine-protein kinase 2 (MKNK2, Homo sapiens, UniProt Q9HBH9)).
Mitogen-activated protein kinase kinase kinase 10 (MAP3K10, Homo sapiens, UniProt Q02779) — remaining activity: 102%.
Serine/threonine-protein kinase Nek4 (NEK4, Homo sapiens, UniProt P51957) — remaining activity: 110%.
It gave 96.2% for remaining activity (Casein kinase II subunit alpha (CSNK2A1, Homo sapiens, UniProt P68400)).
For Mitogen-activated protein kinase kinase kinase kinase 2 (MAP4K2, Homo sapiens, UniProt Q12851): remaining activity read 110%.
It gave 97.4% for remaining activity (Mitogen-activated protein kinase 12 (MAPK12, Homo sapiens, UniProt P53778)).
For Serine/threonine-protein kinase Chk1 (CHEK1, Homo sapiens, UniProt O14757): remaining activity read 101%.
The remaining activity was 102% (Dual specificity mitogen-activated protein kinase kinase 6 (MAP2K6, Homo sapiens, UniProt P52564)).
It gave 103% for remaining activity (Serine/threonine-protein kinase PLK2 (PLK2, Homo sapiens, UniProt Q9NYY3)).
The remaining activity was 119% (Serine/threonine-protein kinase WNK2 (WNK2, Homo sapiens, UniProt Q9Y3S1)).
For Mast/stem cell growth factor receptor Kit (KIT, Homo sapiens, UniProt P10721): remaining activity read 107%.
Interleukin-1 receptor-associated kinase 4 (IRAK4, Homo sapiens, UniProt Q9NWZ3) — remaining activity: 194%.
For Tyrosine-protein kinase BTK (BTK, Homo sapiens, UniProt Q06187): remaining activity read 99.2%.
For Cyclin-dependent kinase 9, with cyclin T1 (CDK9, Homo sapiens, UniProt P50750): remaining activity read 101%.
For Casein kinase I isoform alpha (CSNK1A1, Homo sapiens, UniProt P48729): remaining activity read 96.1%.

Study 4
Organism: Plasmodium berghei
Action: inhibitor
Cells: Huh-7
Strain: liver stage
Concentration: 10 µM
Time: 24 h
Reference: untreated control
The infection rate of `CCN(CC)CCOC(=O)[C@H](Cc1cccc2ccccc12)C[C@H]1CCCO1` is reported as 76.2%.
For `Cc1cccc(Nc2ccccc2C(=O)O)c1C`, the infection rate was 99.2%.
`O=C1OC2(c3ccc(O)cc3Oc3cc(O)ccc32)c2ccccc21` has an infection rate of 102%.
`c1ccc2c(CC3=NCCN3)cccc2c1` gave an infection rate of 96.5%.
For `C[C@]12CCC(=O)C=C1CC[C@@H]1[C@@H]2[C@@H](O)C[C@@]2(C)[C@H]1CC[C@]2(O)C(=O)COP(=O)(O)O`, the infection rate was 98.8%.
For `Oc1c(I)cc(I)c2cccnc12`, the infection rate was 92.2%.
With `CC1(C)O[C@@H]2C[C@H]3[C@@H]4C[C@H](F)C5=CC(=O)CC[C@]5(C)[C@H]4[C@@H](O)C[C@]3(C)[C@]2(C(=O)CO)O1` the infection rate was 96.9%.
`Cc1cccc(C)c1OCC(C)N` (stereo not drawn) gave an infection rate of 106%.
`CN1CCN(C2=Nc3ccccc3Oc3ccc(Cl)cc32)CC1` has an infection rate of 102%.
For `CCCCc1nc(Cl)c(CO)n1Cc1ccc(-c2ccccc2-c2nnn[nH]2)cc1`, the infection rate was 113%.
`NC(=O)c1ccc[n+]([C@@H]2O[C@H](COP(=O)([O-])OP(=O)(O)OC[C@H]3O[C@@H](n4cnc5c(N)ncnc54)[C@H](O)[C@@H]3O)[C@@H](O)[C@H]2O)c1` gave an infection rate of 114%.
`O=C(c1ccccc1)c1ccc2n1CCC2C(=O)O` (stereo not drawn) has an infection rate of 113%.
With `N[C@H]1C(O)O[C@H](CO)[C@@H](O)[C@@H]1O` (stereo partly drawn) the infection rate was 104%.
